Experimental data pooled from the literature.
Compare with care: the assays were run in different laboratories. ± marks the error that the study gave.
Matrix: plasma

SMILES = COc1cccc(-c2ccc(NC(=O)C3=C(C(=O)O)CCC3)c(F)c2)c1; system = human, male, fasted; conditions = oral, 20 mg, single dose, geometric mean; AUC(0-24h) = 41.1 µg·h/mL
SMILES = CS(=O)(=O)n1cc2c(n1)CN([C@H]1CO[C@H](c3cc(F)ccc3F)[C@@H](N)C1)C2; system = healthy male human; conditions = oral, 5 mg, fasted, geometric mean; AUC(0-24h) = 1500 nM·h
SMILES = Cc1ncc(CO)c(C(=O)O)c1O; system = human, both sexes; conditions = dose not given, population mean baseline; AUC(0-24h) = 0.0709 µg·h/mL
SMILES = CC(=O)c1c(C)c2cnc(Nc3ccc(N4CCNCC4)cn3)nc2n(C2CCCC2)c1=O; system = human patients; conditions = oral, 125 mg once daily, steady state, geometric mean, added: inavolisib + letrozole; AUC(0-24h) = 1.65 µg·h/mL
SMILES = C#C[C@]1(CO)O[C@@H](n2cnc3c(N)nc(F)nc32)C[C@@H]1O; system = human; conditions = oral, 2.25 mg once daily, day 19 of, geometric mean, added: doravirine 100 mg once daily; AUC(0-24h) = 270 nM·h
SMILES = CCN1C(=O)CNc2ncc(-c3ccc(-c4nc[nH]n4)nc3C)nc21; system = human; conditions = oral, 16 mg once daily, multiple doses; AUC(0-24h) = 1.09 µg·h/mL
SMILES = CC(C)n1nc(-c2ccc3oc(N)nc3c2)c2c(N)ncnc21; system = human patients; conditions = oral, 2 mg single dose, single agent run-in; AUC(0-24h) = 0.173 ± 0.107 µg·h/mL
SMILES = FC(F)(F)c1ccc(CNc2ccc(Cc3c[nH]c4ncc(Cl)cc34)cn2)cn1; test = [14C]-labelled mass balance; system = human male; conditions = oral, 400 mg; AUC(0-24h) = 27.7 µg·h/mL
SMILES = Cc1ccc(NC(=O)c2ccc(CN3CCNCC3)cc2)cc1Nc1nccc(-c2cccnc2)n1; system = human patients; conditions = oral, 400 mg/day of imatinib, day 10 of cycle 1; AUC(0-24h) = 7.7 µg·h/mL
SMILES = CCN(CC)CCNC(=O)c1c(C)[nH]c(/C=C2\C(=O)Nc3ccc(F)cc32)c1C; test = LC-MS/MS; system = human, cancer patients on efavirenz; conditions = oral, 50 mg/day, cycle 1 day 1; AUC(0-24h) = 0.264 ± 0.0497 µg·h/mL
